Published values of several laboratories.
A part holds a random share of what one study measured.

Study 1
Target: Histone acetyltransferase KAT6A, winged helix 2, GST fusion (KAT6A, Homo sapiens, UniProt Q92794, residues 85-181)
Technique: protein binding microarray
Molecule type: double-stranded DNA, one strand shown
Medium: in vitro
Concentration: not given
Notes: 8-mer, flanks averaged, mean of 2 arrays, mostly near background
Reference: not given
Direction: higher = stronger binding
Residues (chain): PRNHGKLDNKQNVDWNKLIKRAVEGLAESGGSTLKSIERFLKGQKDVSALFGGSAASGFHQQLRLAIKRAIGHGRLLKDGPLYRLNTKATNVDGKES
| Oligonucleotide | E-score |
| --- | --- |
| AATATTCA | -0.0961 |
| TAACTGAA | -0.12 |
| CTAGATAC | -0.049 |
| AGAAATTG | 0.0685 |
| ACGGGCCT | 0.0802 |
| GATAAGGC | 0.109 |
| AGCAGTCA | -0.0095 |
| GGAGTTGA | -0.0782 |
| CGGCGGGC | 0.234 |
| AGTGTGCG | -0.0833 |

Study 2
Target: Sal-like protein 4, full length isoform A (SALL4, Homo sapiens, UniProt Q9UJQ4, residues 1-1053)
Chain of UniProt Q9UJQ4 (whole entry, looked up): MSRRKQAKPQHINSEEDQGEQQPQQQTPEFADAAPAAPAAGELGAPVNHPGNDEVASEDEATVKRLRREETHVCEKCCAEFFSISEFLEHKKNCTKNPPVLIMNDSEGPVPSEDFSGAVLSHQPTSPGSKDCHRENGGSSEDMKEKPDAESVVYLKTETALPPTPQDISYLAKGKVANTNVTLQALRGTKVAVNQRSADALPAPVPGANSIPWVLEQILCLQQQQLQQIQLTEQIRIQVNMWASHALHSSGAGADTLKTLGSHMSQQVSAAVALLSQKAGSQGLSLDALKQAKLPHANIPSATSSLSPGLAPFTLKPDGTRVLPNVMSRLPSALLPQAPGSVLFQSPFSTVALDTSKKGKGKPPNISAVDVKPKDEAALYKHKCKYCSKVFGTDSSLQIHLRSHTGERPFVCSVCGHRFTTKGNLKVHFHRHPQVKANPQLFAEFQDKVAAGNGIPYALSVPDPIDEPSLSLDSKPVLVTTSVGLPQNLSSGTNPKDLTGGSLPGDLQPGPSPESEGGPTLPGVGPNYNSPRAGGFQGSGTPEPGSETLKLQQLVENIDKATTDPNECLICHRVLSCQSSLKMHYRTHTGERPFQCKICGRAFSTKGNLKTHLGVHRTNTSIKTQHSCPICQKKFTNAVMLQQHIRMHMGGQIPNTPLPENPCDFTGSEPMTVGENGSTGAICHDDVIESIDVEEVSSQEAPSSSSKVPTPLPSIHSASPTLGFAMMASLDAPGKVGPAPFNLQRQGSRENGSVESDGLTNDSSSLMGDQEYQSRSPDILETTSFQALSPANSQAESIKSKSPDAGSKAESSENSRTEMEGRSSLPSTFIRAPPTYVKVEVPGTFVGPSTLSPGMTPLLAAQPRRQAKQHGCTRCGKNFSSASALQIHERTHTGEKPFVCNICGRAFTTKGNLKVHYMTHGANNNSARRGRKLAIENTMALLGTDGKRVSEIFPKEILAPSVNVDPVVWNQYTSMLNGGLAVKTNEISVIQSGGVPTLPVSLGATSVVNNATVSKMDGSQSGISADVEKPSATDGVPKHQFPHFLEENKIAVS
Technique: universal PBM
Molecule type: double-stranded DNA, one strand shown
Medium: in vitro
Concentration: 600 nM
Notes: 8-mer, flanks averaged, mean of replicates
Direction: higher = stronger binding
| Oligonucleotide | E-score |
| --- | --- |
| AACAACGA | 0.14 |
| GATGGAGC | -0.166 |
| ACCTGCGC | -0.196 |
| CTAATGAC | 0.06 |
| GGTTGGAC | -0.0653 |
| AAATTTCA | 0.237 |
| ATGATCCA | 0.0569 |
| CAGGCATC | -0.0911 |

Study 3
Target: PABPC1L2, full length, GST fusion (mouse, UniProt A0ABA7IW68)
Technique: RNAcompete
Molecule type: RNA
Medium: in vitro
Concentration: 20 nM
Notes: 7-mer, probes averaged, single round
Reference: mean of 7-mers
Direction: higher = stronger binding
Target sequence (chain): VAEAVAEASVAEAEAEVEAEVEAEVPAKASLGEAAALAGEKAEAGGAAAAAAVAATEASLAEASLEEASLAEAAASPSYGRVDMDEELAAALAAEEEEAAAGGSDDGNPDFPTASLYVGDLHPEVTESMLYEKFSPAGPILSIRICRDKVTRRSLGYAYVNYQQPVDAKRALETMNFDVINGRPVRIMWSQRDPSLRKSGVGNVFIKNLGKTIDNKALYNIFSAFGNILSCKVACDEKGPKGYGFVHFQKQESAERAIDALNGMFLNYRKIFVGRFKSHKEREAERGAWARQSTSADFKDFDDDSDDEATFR
| Oligonucleotide | 7-mer Z-score |
| --- | --- |
| UAUCAAU | -0.11 |
| ACGGAUU | 0.017 |
| AAUGGAA | 0.588 |
| GUACUCC | -0.222 |

Other studies, line by line
| Molecule | target | assay | test system | setting | how to read | endpoint | value |
| --- | --- | --- | --- | --- | --- | --- | --- |
| PhoQ, residues 284 288 289 292 302 303 AGGCYF | PhoP, residues 12 14 15 18 19 HEGLL (Escherichia coli, UniProt P23836) | Sort-seq, measured: YFP reporter | E. coli | PhoQ-PhoP variant library, together with: 10 µM Mg2+ | reference: high Mg2+ state, higher = stronger signaling | fold induction | 1.44 |

Repeated from above (study 1):
| Oligonucleotide | E-score |
| --- | --- |
| TAACTGAA | -0.12 |
| CTAGATAC | -0.049 |
